Results collected from several papers.
A part holds a random share of what one study measured.

Series 1 — observed: enzyme activity; action: inhibitor; concentration: 20 µM
Target: Replicase polyprotein 1ab, polymerase (rep, Severe acute respiratory syndrome coronavirus 2, UniProt P0DTD1)
| Structure (SMILES) | inhibition |
| --- | --- |
| CNC(=O)[C@H](Cc1ccccc1)NC(=O)[C@H](CC(C)C)[C@H](CSc1cccs1)C(=O)NO | -1.13% |
| O=C(/C=C/c1ccccc1)NCCO | -3.85% |
| CCS(=O)(=O)N1CCC[C@@H]2CN3CCc4cc(OC)ccc4[C@@H]3C[C@@H]21 | -0.16% |
| N[C@@H](Cc1cc(CP(=O)(O)O)cc(-c2ccccc2Cl)c1)C(=O)O | 2.82% |
| O=C(O)C(O)=Cc1c[nH]c2ccccc12 | -0.16% |
| COc1ccc(C(=O)c2ccccc2)c(O)c1 | 17.2% |
| COc1cnc(-c2ccc(Cn3c(CC(C)(C)C(=O)O)c(SC(C)(C)C)c4cc(OC[C@@H]5Cc6ccccc6N5C(C)=O)ccc43)cc2)nc1 | -3.77% |
| COC(=O)Nc1nc2cc(Sc3ccccc3)ccc2[nH]1 | 24.2% |
| CCCCCCCCCCC(C)(C)C(=O)Nc1c(OC)cc(OC)cc1OC | -0.77% |
| O=C(O)c1ccc(/C=C2\SC(=S)N(c3cccc(C(F)(F)F)c3)C2=O)cc1 | -2.42% |
| O=Nc1ccc(O)c2ncccc12 | 1.18% |
| O=C(C(c1ccccc1)c1ccccc1)N1CCN(CC(O)COc2cccc3ncccc23)CC1 (centres unmarked) | -3.89% |
| NC(=O)CCCCC1CCSS1 (centres unmarked) | -2.24% |
| Cc1cccc(-c2[nH]c(C(C)(C)C)nc2-c2ccc3nccnc3c2)n1 | 11.4% |
| CN(C)CCOc1ccc(-c2nc(-c3ccncc3)c(-c3ccc4c(c3)CC/C4=N\O)[nH]2)cc1 | -3.77% |
| CCn1cc(C(=O)O)c(=O)c2cnc(N3CCCC3)nc21 | 9.89% |
| COC(=O)Nc1ccc(-c2nc(N3CCOCC3)c3cnn(C4CCN(C(=O)OC)CC4)c3n2)cc1 | -2.73% |
| O=S(=O)(O)c1ccc(O)cc1 | -1.13% |
| CNCCC=C1c2ccccc2C=Cc2ccccc21 | 3.25% |
| O=S(=O)(O)CCS | 25.4% |

Series 2 — method: RNA Bind-n-Seq; molecule type: RNA; sample: in vitro; concentration: not given; setting: RNA with constant flanks, ends assumed; relative to: input RNA pool; reading: higher = stronger binding
Target: RING finger protein unkempt homolog, zinc fingers 1-6, GST-SBP tag (UNK, Homo sapiens, UniProt Q9C0B0, residues 30-357)
Sequence of UniProt Q9C0B0 (30-357, looked up): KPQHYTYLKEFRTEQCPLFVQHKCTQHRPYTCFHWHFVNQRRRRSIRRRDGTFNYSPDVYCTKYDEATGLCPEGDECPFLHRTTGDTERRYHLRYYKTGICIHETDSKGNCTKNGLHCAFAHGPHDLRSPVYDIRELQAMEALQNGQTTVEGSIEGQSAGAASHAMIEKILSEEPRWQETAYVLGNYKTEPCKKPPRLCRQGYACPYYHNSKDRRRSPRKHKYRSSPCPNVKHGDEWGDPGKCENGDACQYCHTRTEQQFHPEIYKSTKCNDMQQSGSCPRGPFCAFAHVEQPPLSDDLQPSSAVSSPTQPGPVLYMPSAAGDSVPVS
| Oligonucleotide | bound/input enrichment |
| --- | --- |
| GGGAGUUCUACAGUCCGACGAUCAUUCACAGAUUUAUUGUGAACACUCUGAAAGACGGAAGGAGAGUAGUUAUCUUGAUGGAAUCCGAAGUUUUGAAGUCAGCUGAAGCAGUUGGAGUGAAGAUUGGCAAUCCAGUGCCCUAUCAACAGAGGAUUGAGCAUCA | 0.293 ratio |
| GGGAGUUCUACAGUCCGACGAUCAGGAAGCAGCAGUUUUGUUGGCAUGUCAAGCUCCAGUUUCCUCAGAGUCAAGCAGAGUACACCGAAAAAAGAGUACCAGAUGAUAAAACUAUUAAUGAAAUUCUAAAGCCUUACAUCGAUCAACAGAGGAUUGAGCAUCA | 0.422 ratio |
| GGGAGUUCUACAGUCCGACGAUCCUCUGCAUUGAACUUACGUAUCCAUGCCAAGGAAUGGAAUUUCCAUCCUGAGCCAGUUCAGUCCGGUGUCAAUUGAUACUAUUUUAAUUUUUUAUGCAAUCUGAUGAGAUGAGCUCAGAUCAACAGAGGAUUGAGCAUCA | 0.504 ratio |
| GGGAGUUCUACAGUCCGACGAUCGUAGAAUUUAUUCUGUCUUUCAUUGACCACAUUGCUGGAGAUGAGGAUCACACAGAUGGAGCCGCCGCUUGUGCUGCUGGACUAAUAGGGGACUUAUGUACAGCAUUUGGGAAGGAUGUACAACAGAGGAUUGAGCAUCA | 0.337 ratio |
| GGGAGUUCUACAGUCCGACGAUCUCCCUUCCCCUGGAGCACAACUUUACUUUCUGUGUCUCUGUUUUGCACAAUAAGAAACUCAGCCGGCAAAGGUUGUGUUUUUUUUUUUGGUAAGUUCACUUGCUUUUUAAAAUUUUUAUUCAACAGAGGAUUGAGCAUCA | 0.227 ratio |

Series 3 — method: protein binding microarray; molecule type: double-stranded DNA, one strand shown; sample: in vitro; concentration: not given; relative to: not given; reading: higher = stronger binding
Target: Histone acetyltransferase KAT6A, winged helix 2, GST fusion (KAT6A, Homo sapiens, UniProt Q92794, residues 85-181)
Setting: 8-mer, flanks averaged, mean of 2 arrays, mostly near background
Target sequence (chain): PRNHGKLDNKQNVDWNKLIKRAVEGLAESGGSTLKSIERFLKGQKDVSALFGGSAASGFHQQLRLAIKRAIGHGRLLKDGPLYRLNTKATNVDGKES
| Oligonucleotide | E-score |
| --- | --- |
| CGTGGGTC | 0.156 |
| GATAGGGC | 0.0688 |
| ACTAGAGT | -0.0581 |
| CTTGAGCC | -0.0963 |
| AGATGCTA | 0.033 |
| AACCTTGT | -0.0691 |
| ATTTCGAG | 0.0996 |
| ACATCGGC | 0.0166 |

Series 4 — method: RNA Bind-n-Seq; molecule type: RNA; sample: in vitro; concentration: 365 nM; relative to: no-protein control; reading: higher = stronger binding
Target: RNA binding protein fox-1 homolog 2, RRM domain, GST-SBP tag (RBFOX2, Homo sapiens, UniProt O43251-10, residues 100-194)
Setting: natural RNA segment, single round, ends assumed
Construct (chain): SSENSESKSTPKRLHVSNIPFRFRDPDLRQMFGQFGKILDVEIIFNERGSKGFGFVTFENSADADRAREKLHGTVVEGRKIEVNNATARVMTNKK
| Oligonucleotide | RBNS enrichment (R) |
| --- | --- |
| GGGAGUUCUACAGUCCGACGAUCACCUGAGAAUGGCCGGAGACCUCAGAUAUGUGUCUCUGCCAGUUGACUGGGCUGGUCCCUCUCAUUUGUACAGUCUGAAUGACAGUUCUUCUUAUCAUUCAGACGUCCCUUGGAAUUCUCGGGUGCCAA | 0.207 |
| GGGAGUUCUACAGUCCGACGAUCUUCCUAAAAUAGACAGUGGGUAUCGGGCAGCAGUCACUGGGGCUCAAGGGCAGUGAGCAAGAGAAAUGUCUAAAGCUGCUUCUCCCAACACCGUCCAAAGUCUCCACUGCUGGAAUUCUCGGGUGCCAA | 0.335 |
| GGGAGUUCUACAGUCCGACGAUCAAAUGACCUCUUCCCCAGACCAGGACUGGGGCUUUACCCCAGAGCCUCGCCUCGCCGCCGUGAGCAGGCAGAGGAUUUGCACACGCCGAGCAGGGAAUGGCUUUCUUGGCUGGAAUUCUCGGGUGCCAA | 0.324 |
| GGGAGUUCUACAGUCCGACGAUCAUACAUGUAGAGUUCCUAGCAAAGUGGGCGCCUUUCUCGUCCACAGCAUUUAAAGAGAGGAAGGAGAACCAUCCUGGACACUCCGGGCUGUGCAUGUUUAAAGAAAUGUCUGGAAUUCUCGGGUGCCAA | 27.8 |
| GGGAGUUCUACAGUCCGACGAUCAAGGGAUUCUCCUCAGAACCCAUUGAGUCCUCCACCCCACAGUUGUGCUUGGAAGCCUGUUGACUGUGCUUAAGGUUAGGCAUUUAGGAAGCACACUGCUUUUUAAACGAUGGAAUUCUCGGGUGCCAA | 0.527 |
| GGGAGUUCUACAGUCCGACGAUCAACGAGGACUCUGGAUCCAGAUUUAAGUAGAUUCAAACACCACUUAACACCAGUAACCGAUUUUAGGACCUUGAGCAAGUUAAAUAACUUCUUCCUGCCUUGGUUUCCCCUGGAAUUCUCGGGUGCCAA | 0.182 |
| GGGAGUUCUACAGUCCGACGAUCCUGGAGACCUCGGCUCCUCCUGCUCCUGAACCAGGAGGCUUCAUGUGGGGGAGGAGGAGAGGUCUCCAUGUGACACAUGGGCUCAGGGCUGCCAGAAUCAGCGGAUGCUGUGGAAUUCUCGGGUGCCAA | 0.273 |
| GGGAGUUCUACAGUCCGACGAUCUACAUCAUCACAGUAGAAUUUAUUAUGAGAGCAUGUAGUAUGUAUCUGUAGCCCUAACACAUGGGAUGAACGUUUUACUGCUACACCCAGAUUUGUGUUGAACGAAAACAUGGAAUUCUCGGGUGCCAA | 0.678 |

Series 5 — cell line: HEK-293T; organism: VSV pseudotyped with SARS-CoV-2 spike; concentration: 10 µM; time: 16 h
| SMILES | pseudovirus infection |
| --- | --- |
| CC(C)c1cccc(C(C)C)c1O | 97.6% |
| CCCNCC(O)COc1ccccc1C(=O)CCc1ccccc1 (centres unmarked) | 46.2% |
| O=P1(N(CCCl)CCCl)NCCCO1 (centres unmarked) | 89.3% |

Series 6 — observed: enzyme activity; action: inhibitor; concentration: 20 µM; setting: hit confirmation
Target: Replicase polyprotein 1ab, main protease (rep, Severe acute respiratory syndrome coronavirus 2, UniProt P0DTD1)
| SMILES | inhibition [%] |
| --- | --- |
| CCOC(=O)/C=C(C)/C=C/C=C(C)/C=C/c1c(C)cc(OC)c(C)c1C | 16 |
| COc1cc(CC2NCCc3cc(O)c(O)cc32)cc(OC)c1OC (centres unmarked) | 55.4 |
| CN1Cc2ccccc2[C@@H]2c3cccc4[nH]cc(c34)C[C@H]21 | 61 |

For quick reference, copied from above (series 3):
| Oligonucleotide | E-score |
| --- | --- |
| GATAGGGC | 0.0688 |
| ACTAGAGT | -0.0581 |
| CTTGAGCC | -0.0963 |
| AGATGCTA | 0.033 |
| AACCTTGT | -0.0691 |
| ATTTCGAG | 0.0996 |
| ACATCGGC | 0.0166 |
